# Measured values from different studies.
# Lines come from different studies, so protocols differ. ± gives the spread as reported.
# Target: PA-I galactophilic lectin (lecA, Pseudomonas aeruginosa, UniProt Q05097)
# Residues used in one study (Q05097 1-122): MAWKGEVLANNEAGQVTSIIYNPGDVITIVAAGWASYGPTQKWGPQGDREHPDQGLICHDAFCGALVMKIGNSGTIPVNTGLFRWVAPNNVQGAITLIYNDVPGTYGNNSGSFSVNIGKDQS
SMILES,test,setting,measurement,value
O=C(COc1ccccc1)N[C@@H](Cc1cn(CCNC(=O)c2ccc(S[C@@H]3O[C@H](CO)[C@H](O)[C@H](O)[C@H]3O)cc2)nn1)C(=O)NCCO,"ligand displacement, FP",,IC50,49 µM
C#Cc1ccc(O[C@@H]2O[C@H](CO)[C@H](O)[C@H](O)[C@H]2O)cc1,"binding, ITC",,Kd,7.3 µM
O=C(O)[C@H]1O[C@@H](c2cn([C@H]3[C@H](O)[C@@H](O)[C@H](n4cc([C@@H]5O[C@H](C(=O)O)[C@@H](n6cc(CO[C@@H]7O[C@H](CO)[C@H](O)[C@H](O)[C@H]7O)nn6)[C@H](O)[C@H]5O)nn4)O[C@@H]3CO)nn2)[C@H](O)[C@@H](O)[C@@H]1n1cc(CO[C@@H]2O[C@H](CO)[C@H](O)[C@H](O)[C@H]2O)nn1,"protein-protein interaction, inhibitor, ELISA",,IC50,0.031 µM
OC[C@H]1OC(O)[C@H](O)[C@@H](O)[C@H]1O (stereo partly shown),differential pulse voltammetry,,Kd,52 ± 10 µM
NC[C@H]1O[C@@H](c2cn([C@H]3[C@H](O)[C@@H](O)[C@H](n4cc([C@@H]5O[C@H](CN)[C@@H](n6cc(CO[C@@H]7O[C@H](CO)[C@H](O)[C@H](O)[C@H]7O)nn6)[C@H](O)[C@H]5O)nn4)O[C@@H]3CO)nn2)[C@H](O)[C@@H](O)[C@@H]1n1cc(CO[C@@H]2O[C@H](CO)[C@H](O)[C@H](O)[C@H]2O)nn1,"binding, ITC",,Kd,0.056 µM
OC[C@H]1O[C@@H](Oc2ccc(OCCc3cn([C@H]4[C@H](O)[C@@H](O)[C@H](c5cn([C@H]6[C@H](O)[C@@H](O)[C@H](n7cc(CCOc8ccc(O[C@@H]9O[C@H](CO)[C@H](O)[C@H](O)[C@H]9O)cc8)nn7)O[C@@H]6CO)nn5)O[C@@H]4CO)nn3)cc2)[C@H](O)[C@@H](O)[C@H]1O,"binding, ITC",pH 7.5,Kd,0.035 µM
[N-]=[N+]=NCCNC(=O)c1ccc(S[C@@H]2O[C@H](CO)[C@H](O)[C@H](O)[C@H]2O)cc1,"binding, SPR",,Kd,6.7 µM
[N-]=[N+]=N[C@H]1[C@H](O)[C@@H](O)[C@H](n2cc(CO[C@@H]3O[C@H](CO)[C@H](O)[C@H](O)[C@H]3O)nn2)O[C@@H]1CO,"binding, ITC",pH 7.5,Kd,6.2 µM
OC[C@H]1O[C@@H](OCc2cn([C@H]3[C@H](O)[C@@H](O)[C@H](c4cn([C@H]5[C@H](O)[C@@H](O)[C@H](n6cc([C@@H]7O[C@H](C[n+]8ccccc8)[C@@H](n8cc(CO[C@@H]9O[C@H](CO)[C@H](O)[C@H](O)[C@H]9O)nn8)[C@H](O)[C@H]7O)nn6)O[C@@H]5CO)nn4)O[C@@H]3C[n+]3ccccc3)nn2)[C@H](O)[C@@H](O)[C@H]1O,"protein-protein interaction, inhibitor, ELISA",,IC50,0.0052 µM
O=C(COCCCCc1ccccc1)N[C@@H](Cc1cn(CCNC(=O)c2ccc(S[C@@H]3O[C@H](CO)[C@H](O)[C@H](O)[C@H]3O)cc2)nn1)C(=O)NCCO,"ligand displacement, FP",,IC50,39.3 µM

# Excerpt of the above:
SMILES,test,setting,measurement,value
O=C(O)[C@H]1O[C@@H](c2cn([C@H]3[C@H](O)[C@@H](O)[C@H](n4cc([C@@H]5O[C@H](C(=O)O)[C@@H](n6cc(CO[C@@H]7O[C@H](CO)[C@H](O)[C@H](O)[C@H]7O)nn6)[C@H](O)[C@H]5O)nn4)O[C@@H]3CO)nn2)[C@H](O)[C@@H](O)[C@@H]1n1cc(CO[C@@H]2O[C@H](CO)[C@H](O)[C@H](O)[C@H]2O)nn1,"protein-protein interaction, inhibitor, ELISA",,IC50,0.031 µM
